# Experimental data collected from several papers.
# PFF0160c E182D: Dihydroorotate dehydrogenase (quinone), mitochondrial (PFF0160c, Plasmodium falciparum, UniProt Q08210, E182D)
# Chain of UniProt Q13233 (whole entry, looked up): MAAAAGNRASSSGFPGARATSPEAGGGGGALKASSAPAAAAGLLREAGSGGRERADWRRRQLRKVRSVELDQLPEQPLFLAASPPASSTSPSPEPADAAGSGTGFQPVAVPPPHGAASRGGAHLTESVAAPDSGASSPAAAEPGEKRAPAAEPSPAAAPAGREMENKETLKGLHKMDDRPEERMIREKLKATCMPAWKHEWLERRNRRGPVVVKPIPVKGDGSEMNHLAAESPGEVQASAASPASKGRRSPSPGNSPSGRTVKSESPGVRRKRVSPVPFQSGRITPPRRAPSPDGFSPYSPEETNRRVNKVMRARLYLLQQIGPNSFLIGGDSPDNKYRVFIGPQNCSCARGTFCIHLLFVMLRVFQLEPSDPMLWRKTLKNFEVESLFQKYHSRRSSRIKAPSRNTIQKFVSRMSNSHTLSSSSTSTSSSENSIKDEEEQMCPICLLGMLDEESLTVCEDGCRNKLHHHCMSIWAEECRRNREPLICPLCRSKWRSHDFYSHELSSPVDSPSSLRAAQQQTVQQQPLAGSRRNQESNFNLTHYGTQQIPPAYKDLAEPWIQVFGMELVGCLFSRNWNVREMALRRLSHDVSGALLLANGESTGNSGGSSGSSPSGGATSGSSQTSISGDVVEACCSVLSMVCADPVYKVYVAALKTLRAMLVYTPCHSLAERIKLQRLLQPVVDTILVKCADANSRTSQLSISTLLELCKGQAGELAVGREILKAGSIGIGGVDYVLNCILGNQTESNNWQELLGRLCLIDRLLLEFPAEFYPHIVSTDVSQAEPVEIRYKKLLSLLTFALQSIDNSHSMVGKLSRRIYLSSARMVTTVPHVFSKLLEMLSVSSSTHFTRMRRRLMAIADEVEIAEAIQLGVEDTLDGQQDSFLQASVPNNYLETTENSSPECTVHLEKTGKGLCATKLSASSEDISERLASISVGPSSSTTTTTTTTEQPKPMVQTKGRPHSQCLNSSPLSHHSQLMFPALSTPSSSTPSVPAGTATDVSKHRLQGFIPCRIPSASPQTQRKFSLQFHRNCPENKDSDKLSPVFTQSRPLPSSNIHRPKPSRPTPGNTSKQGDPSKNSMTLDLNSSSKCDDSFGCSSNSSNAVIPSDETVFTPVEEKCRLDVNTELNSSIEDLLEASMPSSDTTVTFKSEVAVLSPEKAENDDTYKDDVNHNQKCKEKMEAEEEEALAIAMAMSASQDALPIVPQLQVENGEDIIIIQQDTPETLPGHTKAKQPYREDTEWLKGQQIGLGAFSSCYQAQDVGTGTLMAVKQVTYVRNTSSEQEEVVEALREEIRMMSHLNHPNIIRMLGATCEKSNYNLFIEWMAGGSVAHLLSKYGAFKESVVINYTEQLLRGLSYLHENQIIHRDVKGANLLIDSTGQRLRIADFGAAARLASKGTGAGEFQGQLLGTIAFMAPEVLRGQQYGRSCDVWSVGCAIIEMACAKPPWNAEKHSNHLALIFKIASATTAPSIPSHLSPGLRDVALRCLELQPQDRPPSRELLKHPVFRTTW
# Chain of UniProt P49841 (whole entry, looked up): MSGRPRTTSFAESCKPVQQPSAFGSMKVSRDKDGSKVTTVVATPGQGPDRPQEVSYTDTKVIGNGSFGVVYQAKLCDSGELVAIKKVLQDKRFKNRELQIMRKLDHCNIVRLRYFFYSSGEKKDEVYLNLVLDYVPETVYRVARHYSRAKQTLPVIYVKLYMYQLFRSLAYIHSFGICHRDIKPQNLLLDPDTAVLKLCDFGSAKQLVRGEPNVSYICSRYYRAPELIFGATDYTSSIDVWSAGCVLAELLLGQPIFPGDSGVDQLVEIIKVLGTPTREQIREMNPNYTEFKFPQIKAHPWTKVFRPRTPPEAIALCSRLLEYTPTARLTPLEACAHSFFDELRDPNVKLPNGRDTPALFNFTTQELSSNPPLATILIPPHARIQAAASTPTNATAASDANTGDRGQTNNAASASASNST
# Chain of UniProt Q9P2K8 (whole entry, unmodified, looked up): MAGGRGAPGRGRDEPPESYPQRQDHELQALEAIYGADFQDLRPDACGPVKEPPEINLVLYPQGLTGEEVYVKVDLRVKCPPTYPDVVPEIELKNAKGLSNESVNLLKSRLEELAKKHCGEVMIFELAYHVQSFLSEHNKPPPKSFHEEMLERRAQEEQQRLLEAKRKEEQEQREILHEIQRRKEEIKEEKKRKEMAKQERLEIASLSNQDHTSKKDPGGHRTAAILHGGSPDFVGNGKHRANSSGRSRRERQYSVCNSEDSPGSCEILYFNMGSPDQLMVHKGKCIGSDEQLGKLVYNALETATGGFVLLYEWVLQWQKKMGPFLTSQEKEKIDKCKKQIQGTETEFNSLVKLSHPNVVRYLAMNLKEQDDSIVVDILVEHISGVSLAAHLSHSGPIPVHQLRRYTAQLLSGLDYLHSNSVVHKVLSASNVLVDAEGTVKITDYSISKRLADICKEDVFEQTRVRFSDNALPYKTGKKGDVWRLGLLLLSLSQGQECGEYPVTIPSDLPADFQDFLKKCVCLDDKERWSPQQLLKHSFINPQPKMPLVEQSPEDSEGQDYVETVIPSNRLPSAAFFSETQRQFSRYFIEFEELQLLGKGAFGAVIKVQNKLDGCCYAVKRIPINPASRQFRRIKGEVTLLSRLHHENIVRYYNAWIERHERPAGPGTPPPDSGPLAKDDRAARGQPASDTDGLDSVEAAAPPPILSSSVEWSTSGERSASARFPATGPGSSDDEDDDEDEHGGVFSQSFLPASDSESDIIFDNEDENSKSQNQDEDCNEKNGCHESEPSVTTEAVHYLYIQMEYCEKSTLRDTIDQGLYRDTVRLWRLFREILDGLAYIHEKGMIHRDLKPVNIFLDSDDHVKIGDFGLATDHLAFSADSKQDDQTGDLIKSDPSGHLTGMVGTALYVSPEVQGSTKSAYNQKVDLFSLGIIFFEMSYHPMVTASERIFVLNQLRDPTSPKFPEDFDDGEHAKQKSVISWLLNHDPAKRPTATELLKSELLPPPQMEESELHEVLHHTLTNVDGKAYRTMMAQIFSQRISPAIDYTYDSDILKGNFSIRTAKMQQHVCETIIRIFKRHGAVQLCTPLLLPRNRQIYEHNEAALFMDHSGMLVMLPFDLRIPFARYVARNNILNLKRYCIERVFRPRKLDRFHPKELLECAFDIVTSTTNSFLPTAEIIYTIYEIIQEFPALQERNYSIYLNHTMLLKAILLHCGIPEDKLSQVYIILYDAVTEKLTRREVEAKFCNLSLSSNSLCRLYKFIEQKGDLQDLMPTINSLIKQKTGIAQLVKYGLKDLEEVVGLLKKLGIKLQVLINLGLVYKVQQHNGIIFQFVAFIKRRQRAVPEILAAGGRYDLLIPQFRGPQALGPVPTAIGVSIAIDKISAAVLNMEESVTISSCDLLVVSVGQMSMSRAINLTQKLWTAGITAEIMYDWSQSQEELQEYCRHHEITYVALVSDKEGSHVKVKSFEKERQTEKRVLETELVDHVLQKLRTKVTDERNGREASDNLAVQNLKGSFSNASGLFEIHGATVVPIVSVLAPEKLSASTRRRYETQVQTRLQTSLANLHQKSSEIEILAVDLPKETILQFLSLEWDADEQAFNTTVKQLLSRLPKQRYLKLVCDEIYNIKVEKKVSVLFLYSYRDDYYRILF
# Chain of UniProt Q16513 (whole entry, looked up): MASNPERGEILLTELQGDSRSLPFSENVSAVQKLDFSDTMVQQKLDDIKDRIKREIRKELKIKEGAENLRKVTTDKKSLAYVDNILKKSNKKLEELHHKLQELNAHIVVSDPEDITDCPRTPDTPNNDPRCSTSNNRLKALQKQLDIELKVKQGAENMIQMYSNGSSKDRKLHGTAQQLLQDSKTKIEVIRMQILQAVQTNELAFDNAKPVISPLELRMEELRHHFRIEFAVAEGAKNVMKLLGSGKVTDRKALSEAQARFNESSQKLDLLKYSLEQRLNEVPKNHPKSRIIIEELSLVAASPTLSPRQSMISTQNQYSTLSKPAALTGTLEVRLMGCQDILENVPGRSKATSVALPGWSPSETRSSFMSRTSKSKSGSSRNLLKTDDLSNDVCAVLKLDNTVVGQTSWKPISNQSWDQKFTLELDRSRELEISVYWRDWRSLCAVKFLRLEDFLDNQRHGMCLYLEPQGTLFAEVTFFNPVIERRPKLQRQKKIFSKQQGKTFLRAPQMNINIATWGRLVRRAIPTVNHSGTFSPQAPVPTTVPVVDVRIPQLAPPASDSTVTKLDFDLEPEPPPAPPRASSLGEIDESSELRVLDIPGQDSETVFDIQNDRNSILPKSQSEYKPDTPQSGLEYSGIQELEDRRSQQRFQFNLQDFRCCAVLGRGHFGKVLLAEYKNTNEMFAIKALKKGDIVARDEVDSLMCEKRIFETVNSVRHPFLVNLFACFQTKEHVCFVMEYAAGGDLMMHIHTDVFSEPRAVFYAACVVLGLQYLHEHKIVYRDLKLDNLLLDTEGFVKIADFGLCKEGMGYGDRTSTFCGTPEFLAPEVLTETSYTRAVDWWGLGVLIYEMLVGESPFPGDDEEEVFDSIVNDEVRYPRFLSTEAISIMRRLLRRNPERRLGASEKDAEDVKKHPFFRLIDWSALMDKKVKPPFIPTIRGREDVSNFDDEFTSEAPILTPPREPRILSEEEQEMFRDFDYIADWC
# Chain of UniProt Q8WU08 (whole entry, looked up): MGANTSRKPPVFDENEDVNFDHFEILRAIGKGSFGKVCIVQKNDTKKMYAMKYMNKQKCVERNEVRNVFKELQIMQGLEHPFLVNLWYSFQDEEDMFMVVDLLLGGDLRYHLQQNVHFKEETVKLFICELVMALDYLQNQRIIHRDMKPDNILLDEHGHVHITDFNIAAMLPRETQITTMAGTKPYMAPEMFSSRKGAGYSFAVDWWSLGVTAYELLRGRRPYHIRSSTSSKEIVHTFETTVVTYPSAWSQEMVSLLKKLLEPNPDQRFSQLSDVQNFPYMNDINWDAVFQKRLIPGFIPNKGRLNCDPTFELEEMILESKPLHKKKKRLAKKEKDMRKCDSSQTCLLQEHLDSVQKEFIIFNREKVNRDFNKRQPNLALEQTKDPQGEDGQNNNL
SMILES,tested on,test,system,conditions,quantity,result
COC(=O)c1cc(-c2cccc(NC(=O)Nc3cc(OC)ccc3OC)c2)on1,Mycobacteroides chelonae,"microbial growth, broth dilution",ATCC35752,48 h,MIC,> 64 mg/L
C#Cc1cccc(O)c1C=NNC(=O)c1ccc(Br)c(Br)c1,Candida albicans,microbial growth,,pH 7.4,MIC80,16 mg/L
CC[C@H](C)[C@H](NC(=O)[C@H](Cc1ccccc1)NC(=O)[C@H](CCC(=O)O)NC(=O)[C@H](CCCNC(=N)N)NC(=O)[C@H](C)NC(=O)[C@H](C)NC(=O)[C@H](CCC(N)=O)NC(=O)[C@H](CCC(=O)O)NC(=O)[C@H](CCC(=O)O)NC(=O)[C@H](CC(C)C)NC(=O)[C@H](Cc1ccc(O)cc1)NC(=O)[C@H](CO)NC(=O)[C@H](CO)NC(=O)[C@@H](NC(=O)[C@H](CC(=O)O)NC(=O)[C@H](CO)NC(=O)[C@@H](NC(=O)[C@H](Cc1ccccc1)NC(=O)[C@@H](NC(=O)CNC(=O)[C@H](CCC(=O)O)NC(=O)[C@H](C)NC(=O)CCc1c[nH]cn1)[C@@H](C)O)[C@@H](C)O)C(C)C)C(=O)N[C@@H](C)C(=O)N[C@@H](Cc1c[nH]c2ccccc12)C(=O)N[C@@H](CC(C)C)C(=O)N[C@H](C(=O)N[C@@H](CCCNC(=N)N)C(=O)NCC(=O)N[C@@H](CCCNC(=N)N)C(=O)N[C@@H](CCCCNC(=O)COCCOCCNC(=O)COCCOCCNC(=O)CC[C@H](NC(=O)CCCCCCCCCCCCCCCCC(=O)O)C(=O)O)C(=O)NCC(=O)NCC(=O)N[C@@H](CO)C(=O)N[C@@H](CCCCNc1c(NCCCCCN(O)C(=O)CCC(=O)NCCCCCN(O)C(=O)CCC(=O)NCCCCCN(O)C(C)=O)c(=O)c1=O)C(=O)O)C(C)C,,,"rat, plasma","subcutaneous, 20 nmol/kg, single dose",Cmax,0.0608 µM
COc1ncccc1-c1cnn2ccc(N3CCN(C(=O)OC(C)C)CC3)nc12,"STK32A (Homo sapiens, UniProt Q8WU08)","binding, competition with immobilised ligand",,1 µM,remaining binding,94%
O=c1c(Br)c(C(F)(F)F)[nH]c2ccc(Oc3ccccc3)cc12,PFF0160c E182D,"enzyme activity, inhibitor, absorbance",,,IC50,> 10 µM
COc1ccc(-c2cc(C(F)(F)F)c3c(N)c(C(=O)Nc4cccc(C)c4F)sc3n2)cc1,Mycobacterium tuberculosis,microbial growth,H37RV,,IC50,> 100 µM
C#Cc1n[nH]c2c(-c3cn(C(C)c4ccccn4)c(=O)[nH]c3=O)cc(F)cc12 (stereo not drawn),"GSK3B (Homo sapiens, UniProt P49841)","enzyme activity, inhibitor",,1 µM,inhibition,3.7%
Cc1nn(C)cc1-c1nc2c(N3CCN(Cc4ccc(Cl)cc4)CC3)c(Cl)cnc2[nH]1,"MAP3K1 (Homo sapiens, UniProt Q13233)","binding, competition with immobilised ligand",,1 µM,remaining binding,100%
COc1ccc(-c2ccc3c(N)c(C(=O)N4CCOCC4)sc3n2)cc1,Mycobacterium tuberculosis,microbial growth,H37RV,,IC50,> 100 µM
[2H]c1c([2H])c([C@]2([2H])CCCN2C(=O)C(C)(C)Oc2ccc3cn[nH]c3c2)c([2H])c([2H])c1C([2H])([2H])[2H],"eIF-2-alpha kinase GCN2, C-terminal kinase domain (EIF2AK4, Homo sapiens, UniProt Q9P2K8, S808G)","binding, competition with immobilised ligand",,1 µM,remaining binding,100%
Nc1ncc(-c2nc(N3CCOCC3)nc(N3CCOCC3)n2)c(C(F)F)n1,"PKN2 (Homo sapiens, UniProt Q16513)","binding, competition with immobilised ligand",,10 µM,remaining binding,100%
COC(=O)c1cc(-c2cccc(NC(=S)Nc3ccc([N+](=O)[O-])cc3)c2)on1,Pseudomonas aeruginosa,"microbial growth, broth dilution",ATCC27853,,MIC,> 64 mg/L
C#Cc1ccc(O)c(C=NNC(=O)c2ccc(Br)c(Br)c2)c1,Candida albicans,microbial growth,,pH 7.4,MIC80,0.25 mg/L
COc1ccc(-c2cc(C(F)(F)F)c3c(N)c(C(=O)NC45CC(C4)C5)sc3n2)cc1,Mycobacterium tuberculosis,microbial growth,H37RV,,IC50,> 50 µM
C[C@]12CC[C@H](n3ccnc3)CC1=CC[C@@H]1[C@@H]2CC[C@]2(C)C(n3cnc4ccccc43)=CC[C@@H]12,LNCaP,"cell growth or viability, MTT",,,GI50,0.2 µM
C#Cc1ccc(C(=O)NN=Cc2cccc(C#C)c2O)cc1,Cryptococcus neoformans,"microbial growth, broth dilution",,pH 7.4,MIC80,0.015 mg/L
COC(=O)c1cc(-c2cccc(NC(=S)Nc3ccc(C#N)cc3)c2)on1,Pseudomonas aeruginosa,"microbial growth, broth dilution",ATCC27853,,MIC,> 64 mg/L
COc1ccc(-c2cc(C(F)(F)F)c3c(N)c(C(=O)NC4COC4)sc3n2)cc1,Mycobacterium tuberculosis,microbial growth,H37RV,,IC50,> 100 µM
COC(=O)c1cc(-c2cccc(NC(=O)Nc3ccc(Cl)cc3Cl)c2)on1,Pseudomonas aeruginosa,"microbial growth, broth dilution",ATCC27853,,MIC,> 64 mg/L
COc1cnc(OC)n2nc(NS(=O)(=O)c3c(OCC(F)F)cccc3C(F)(F)F)nc12,HaCaT,"cell growth or viability, CCK-8",,"100 µM, 72 h",inhibition,2.19%
Nc1ncnc2c([C@@H]3N[C@H](CO)[C@@H](O)[C@H]3O)c[nH]c12,Dengue virus,viral replication,"Vero 76, DENV2",29.6 µM,inhibition,51.5%
COc1ccc(-c2cc(C(F)(F)F)c3c(N)c(C(=O)NC45CC6CC(CC(C6)C4)C5)sc3n2)cc1,Mycobacterium tuberculosis,microbial growth,H37RV,,IC50,0.76 µM
O=c1cc(CSc2ccc(N=Cc3cccc(Cl)c3)cc2)occ1O,,"DPPH scavenging, absorbance",,30 min,IC50,97.5 µM
C#Cc1ccc(O)c(C=NNC(=O)c2ccc(Br)cc2Br)c1,Cryptococcus neoformans,"microbial growth, broth dilution",,pH 7.4,MIC80,0.03 mg/L
Cc1ccc(NC(=O)c2sc3nc(C)cc(C(F)(F)F)c3c2N)cc1,Mycobacterium tuberculosis,microbial growth,H37RV,,IC50,> 100 µM
COC(=O)c1cc(-c2cccc(NC(=O)Nc3ccc(Cl)c(C(F)(F)F)c3)c2)on1,Mycolicibacterium fortuitum,"microbial growth, broth dilution",ATCC6841,48 h,MIC,> 64 mg/L
O=C1NC(=O)C(C2C3=C(CCCC3=O)Oc3ccc([N+](=O)[O-])cc32)C(=O)N1 (stereo not drawn),3T3-L1,"cell growth or viability, MTT",,72 h,IC20,153 mg/L
N.N.[Cl][Pt][Cl],SUP-B15,"cell growth or viability, ATP luminescence",,"10 µM, 72 h",inhibition,98%
O=c1cc(CSc2ccc(N=Cc3cccc(O)c3)cc2)occ1O,,"DPPH scavenging, absorbance",,30 min,IC50,6.99 µM
CCOC(=O)C1=C[C@@H](OC(CC)CC)[C@H](NC(C)=O)[C@@H](N)C1,Human coronavirus 229E,cytopathic effect,A549,12.5 µM,inhibition,52.8%
O=c1cc(CSc2ccc(N=Cc3cccc(F)c3)cc2)occ1O,,"DPPH scavenging, absorbance",,30 min,IC50,86.6 µM
Cc1cccc2[nH]cc(CNCC3(N4CCCC4)COC3)c12,A 172,cell growth or viability,,"30 µM, 48 h",viability,65.5%
C#Cc1cccc(C(=O)NN=Cc2cc(C#C)ccc2O)c1,Candida albicans,microbial growth,,pH 7.4,MIC80,0.06 mg/L
CC(=O)N1CCN(c2ccc(OCC3COC(Cn4ccnc4)(c4ccc(Cl)cc4Cl)O3)cc2)CC1 (stereo not drawn),Candida albicans,"microbial killing, broth dilution",56452,48 h,MFC,> 64 µM
C#Cc1ccc(C=NNC(=O)c2ccc(Br)c(Br)c2)c(O)c1,Cryptococcus neoformans,"microbial growth, broth dilution",,pH 7.4,MIC80,0.007 mg/L
COC(=O)c1cc(-c2cccc(NC(=O)Nc3cccc(C#N)c3)c2)on1,Pseudomonas aeruginosa,"microbial growth, broth dilution",ATCC27853,,MIC,> 64 mg/L
CCNC(=O)c1sc2nc(-c3ccc(Cl)cc3Cl)cc(C(F)(F)F)c2c1N,Mycobacterium tuberculosis,microbial growth,H37RV,,IC50,> 100 µM
COC(=O)c1cc(-c2cccc(NC(=O)NCc3ccccc3)c2)on1,Mycobacteroides chelonae,"microbial growth, broth dilution",ATCC35752,48 h,MIC,> 64 mg/L
COc1ccc(-c2cc(C(F)(F)F)c3c(N)c(C(=O)NCC45CC6CC(CC(C6)C4)C5)sc3n2)cc1,Mycobacterium tuberculosis,microbial growth,H37RV,,IC50,0.99 µM
Cc1nnc(N2C(=N)SC(=Cc3ccc(-c4ccc(OC(F)(F)F)cc4)o3)C2=O)s1,PFF0160c E182D,"enzyme activity, inhibitor, absorbance",,,IC50,0.266 µM
O=C(Nc1cccc(-c2cc(C(=O)O)no2)c1)Nc1ccc(Cl)c(Cl)c1,Mycolicibacterium fortuitum,"microbial growth, broth dilution",ATCC6841,48 h,MIC,> 64 mg/L
C#Cc1cc(O)c(C=NNC(=O)c2ccc(Br)cc2Br)cc1C#C,Candida albicans,microbial growth,,pH 7.4,MIC80,16 mg/L

# Repeated from above:
SMILES,tested on,test,system,conditions,quantity,result
C[C@]12CC[C@H](n3ccnc3)CC1=CC[C@@H]1[C@@H]2CC[C@]2(C)C(n3cnc4ccccc43)=CC[C@@H]12,LNCaP,"cell growth or viability, MTT",,,GI50,0.2 µM
C#Cc1ccc(C(=O)NN=Cc2cccc(C#C)c2O)cc1,Cryptococcus neoformans,"microbial growth, broth dilution",,pH 7.4,MIC80,0.015 mg/L
COC(=O)c1cc(-c2cccc(NC(=S)Nc3ccc(C#N)cc3)c2)on1,Pseudomonas aeruginosa,"microbial growth, broth dilution",ATCC27853,,MIC,> 64 mg/L
